Measured values of several laboratories.
Every numbered part comes from another study and shows a few of its results, in no order.

Study 1 — method: RNA Bind-n-Seq; form: RNA; medium: in vitro; tested at: 365 nM; baseline: no-protein control; direction: higher = stronger binding; measurement: RBNS enrichment (R)
Target: RNA binding protein fox-1 homolog 2, RRM domain, GST-SBP tag (RBFOX2, Homo sapiens, UniProt O43251-10, residues 100-194)
Notes: natural RNA segment, single round, ends assumed
Shared flanks, not repeated: GGGAGUUCUACAGUCCGACGAUC … UGGAAUUCUCGGGUGCCAA
AAAACUUUAGUGCCAAAAUAGUGGAACUAUUUUGUCAUCUUUUGAGAAAAAAAUAUACAAAGAAGUCAUCUUUUCAUUAAGUGGAUUCCCUGGUUCCUUUCCAGCUGGUU: 0.451
CAGAGAGUCUCCAAAUAAAAAGGGUUUUGUUCAGAUUAAAAUGUUUACAACAAAAUGUUAAUUAUAUUCUAAAUACAGGGUAUGUUCUAAUCUAUAUUAAGCAAUAAUGC: 0.878
UUUGCUCUUAAGUUACAAGAGACCACAUCCACCCAGGGAUUAGGGUUCAAGUAGCAGCUGCUAACCCUUGCACCAGCCCUUGUGGGACUCCCAACACAAGACAAAGCUCA: 0.55
GCUGGCAGUAGCUGUCCCAGCCUCAGCUCCUGGCCCGGUCCUGGGGUUCCCUCUUCACAGUCCCCGUUCCCACACUUCCUCCACCAUCACUCACUCACUGGUGCUGGCCU: 0.811
UGAAUCCAUUUUUAUAGAAUUUUUUUCCACUGUAACUUGACCUAUAUUAUGCAAGAAAAUCCCAAAAAUAUGUUUUAAGGGAGACUACACAGACCUUGUGAUUUGGUCUG: 0.754
GGCAUCACUUUGUCUUAGCAAUUAAUGGGAUAUUGAUUACUAAAAUAAGUUAAUAUUAAGCAAGGUGCCGGUUGUACAAUCUCUGAUCAGUGUCUUUUCAGCACUUUGAG: 0.409
GACAUUGUCUUGGAGAACACUUGGCUCGGAUGGAAAUGUUCUUGUUUUUUACAGCAUUGCUUCAGAGGUUUCAUUUGCAUUUUCCACAUGAACUAGUUCCAGAUCUGAAG: 0.557
CCUCUGCCCAUGAUCCCCAAUGUUGGCUAUAACUGCGUGAAUAAAGCAAGGAUCAGUGCCUCCUGUGAACUAGUGCUCCAUUGCUUUUGUGUGUUGUGUUCUGUACAAUU: 1.04

Study 2 — method: RNA Bind-n-Seq; form: RNA; medium: in vitro; tested at: 200 nM; notes: whole 134-nt RNA, ends assumed; with: 150 mM LiCl; baseline: input library; direction: higher = stronger binding; measurement: log2 enrichment; all molecules: 7-deaza-guanosine replaces G
Target: Fragile X messenger ribonucleoprotein 1, C-terminal low-complexity region (Fmr1, Mus musculus, UniProt P35922)
Shared flanks, not repeated: GGGAGUUCUACAGUCCGACGAUC … UGGAAUUCUCGGGUGUCAAGG
CAAGUCCUGUGCUACACAUCGUAUGUACCGAAUCGGGAAAAAAAGGGAGGGUGGGAAAGUAUUAUGUUACGCCGUUCGGAUCUGCACUUC: -0.362
UCCUGUGCUACACAUCGUAUGUACCGAAUCGGGUUUUUGGGGUUUUUGGGGUUUUUGGGAAAGUAUUAUGUUACGCCGUUCGGAUCUGCA: 0.39
ACCAUGCAGGUGGGCAUCUUUGGGAAGUAAAGCAAGGGGGGGAUAGGGAGGGGGGUAACACUUUGGGAACAGGUGGUCCCAGGUCGUUUC: 1.19
GCAGGAAGUAAAAACAAAUGGAAAUGCUUCGGAUAGUGGCAGGGGUGGGGGUUGCUAAGGAAAGGGUGGGAUGGGAGUGGGUAAAGCGUU: 1.57
UCCUGUGCUACACAUCGUAUGUACCGAAUCGGUUUUUUGGGGUUUUUUGGGUUUUUUGGAAAGUAUUAUGUUACGCCGUUCGGAUCUGCA: 0.227
CCUCAAGUCCUGUGCUACACAUCGUAUGUACCGAAUCGGUUGGUUGGGUUGGAAAGUAUUAUGUUACGCCGUUCGGAUCUGCACUUCCAG: 0.335
UGGAAGGUGGAUUUUGUUUAUUUUUUUAGCUCAUUUCCAGGGGUGGGAAUUUUUUUUUAAUAUGUGUCAUGAAUAAAGUUGUUUUUGAAA: -0.733
CUCAAGUCCUGUGCUACACAUCGUAUGUACCGAAUCGGCCCGGCCCGGCCCGGAAAGUAUUAUGUUACGCCGUUCGGAUCUGCACUUCCA: 0.299

Study 3 — method: protein binding microarray; form: double-stranded DNA, one strand shown; medium: in vitro; tested at: not given; baseline: not given; direction: higher = stronger binding; measurement: E-score
Target: Histone acetyltransferase KAT6A, both winged helices, GST fusion (KAT6A, Homo sapiens, UniProt Q92794, residues 1-181)
Notes: 8-mer, flanks averaged, mean of 2 arrays, mostly near background
Construct (chain): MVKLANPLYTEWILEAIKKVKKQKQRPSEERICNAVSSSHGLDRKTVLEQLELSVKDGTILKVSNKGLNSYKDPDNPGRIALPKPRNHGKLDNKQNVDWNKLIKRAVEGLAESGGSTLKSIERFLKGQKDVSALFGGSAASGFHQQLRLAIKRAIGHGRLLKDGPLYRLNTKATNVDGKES
AAGCAGGT: -0.139
TGTGTAAA: -0.0565
ACAGACAG: 0.0028
CGTGCAAA: -0.0597
CGTAAGCA: -0.132
ATTCCATG: -0.0427
ATAGCTTG: -0.0979
CAGGCTAC: -0.195
ACCTATAT: 0.0164
CTCCTTAC: -0.0678
CCGACAAA: 0.0366
AGACATCT: -0.2
ATGCGTTC: 0.117
ATGGCTTG: -0.0466
AAAGACAA: -0.0501
ATTTACAG: -0.113
TAGTACGA: 0.0144
CCATTCTA: -0.191
ATCCCGTC: 0.252
CACATGGC: 0.019
CTCTGAGA: -0.128
AAGCGGGC: 0.116
CCAAATAG: -0.185
AATCCCGC: 0.274
ACCTACAT: -0.081

Study 4 — method: universal PBM; form: double-stranded DNA, one strand shown; medium: in vitro; tested at: not given; direction: higher = stronger binding; measurement: E-score
Target: Sal-like protein 4, full length isoform B (SALL4, Homo sapiens, UniProt Q9UJQ4-2, residues 1-616)
Notes: 8-mer, flanks averaged, mean of replicates
AAACACAG: 0.15
ATCCAGCA: 0.0575
CGTAATAA: 0.386
CGAGCACG: -0.257
ACAGGTAT: 0.123
ACACCGGT: -0.254
CGGGAACA: -0.0713
AGCTCACA: 0.0175
CGGAAGGC: -0.239
CTTATTCC: 0.155
TGAAAGAA: 0.173
ATGCCTGA: 0.0543
GCCAGGAC: -0.275
CGAATAAA: 0.189
GAGGCCCA: -0.271
CGATCGCC: -0.156
GGGTGACC: -0.237
GCGTAATA: 0.294
CATGAGTA: 0.052

A few entries again (study 2):
CUCAAGUCCUGUGCUACACAUCGUAUGUACCGAAUCGGCCCGGCCCGGCCCGGAAAGUAUUAUGUUACGCCGUUCGGAUCUGCACUUCCA: 0.299
CAAGUCCUGUGCUACACAUCGUAUGUACCGAAUCGGGAAAAAAAGGGAGGGUGGGAAAGUAUUAUGUUACGCCGUUCGGAUCUGCACUUC: -0.362
CCUCAAGUCCUGUGCUACACAUCGUAUGUACCGAAUCGGUUGGUUGGGUUGGAAAGUAUUAUGUUACGCCGUUCGGAUCUGCACUUCCAG: 0.335
GCAGGAAGUAAAAACAAAUGGAAAUGCUUCGGAUAGUGGCAGGGGUGGGGGUUGCUAAGGAAAGGGUGGGAUGGGAGUGGGUAAAGCGUU: 1.57
UGGAAGGUGGAUUUUGUUUAUUUUUUUAGCUCAUUUCCAGGGGUGGGAAUUUUUUUUUAAUAUGUGUCAUGAAUAAAGUUGUUUUUGAAA: -0.733
ACCAUGCAGGUGGGCAUCUUUGGGAAGUAAAGCAAGGGGGGGAUAGGGAGGGGGGUAACACUUUGGGAACAGGUGGUCCCAGGUCGUUUC: 1.19
UCCUGUGCUACACAUCGUAUGUACCGAAUCGGGUUUUUGGGGUUUUUGGGGUUUUUGGGAAAGUAUUAUGUUACGCCGUUCGGAUCUGCA: 0.39
UCCUGUGCUACACAUCGUAUGUACCGAAUCGGUUUUUUGGGGUUUUUUGGGUUUUUUGGAAAGUAUUAUGUUACGCCGUUCGGAUCUGCA: 0.227
